# Experimental data of several laboratories.
# ± gives the spread as reported.
Structure (SMILES),cell line,assay,system,setting,scale,measurement,result
CCCCn1cc(C(=O)O)c(=O)c2cc(F)c(Nc3ccccc3OC)c([N+](=O)[O-])c21,T47D,"cell growth or viability, SRB",,,,IC50,310 µM
CCCCn1cc(C(=O)O)c(=O)c2cc(F)c(N)c([N+](=O)[O-])c21,PANC-1,"cell growth or viability, SRB",,,,IC50,359 µM
OC[C@H]1O[C@@H](Oc2ccc(O)cc2)[C@H](O)[C@@H](O)[C@@H]1O,A-375,CCK-8,,"200 µM, 72 h",,cytotoxicity,not toxic
COc1ccc(-c2coc3c(CC=C(C)C)c(O)c(CC=C(C)C)c(O)c3c2=O)cc1O,K562,"cell growth or viability, MTT",,100 µg/mL,,viability,11.6%
NCC1OC(OC2C(N)CC(N)C(OC3OC(CO)C(O)C(N)C3O)C2OCCCCCCCCCCCCn2cc(CNc3nc(NCc4cn(CCCCCCCCCCCCOC5C(OC6OC(CN)C(O)CC6N)C(N)CC(N)C5OC5OC(CO)C(O)C(N)C5O)nn4)nc(NCc4cn(CCCCCCCCCCCCOC5C(OC6OC(CN)C(O)CC6N)C(N)CC(N)C5OC5OC(CO)C(O)C(N)C5O)nn4)n3)nn2)C(N)CC1O (stereo not shown),Hep G2,PrestoBlue,,"2 µM, 48 h",reference: untreated,viability,70%
CCC(=C(c1ccc(O)cc1)c1ccc(OCCN(C)CCOCCOCCOCCOCCOCCOCCOCCOCCOCCOCCOCCN(C)CCOc2ccc(C(=C(CC)c3ccccc3)c3ccc(O)cc3)cc2)cc1)c1ccccc1 (mixture of isomers),U2OS expressing ERα,,,"10 µM, Z-Z:Z-E:E-E 1:2:1 isomer mix",,cell density,8%
COC(=O)c1cc(CN2CCN(C(=N)N)CC2)cc(C(=O)N2CCN(C(=O)c3ccc(C(=N)N)cc3)CC2)c1,Calu-3,ATP content,,"concentration not given, 48 (unit not given)",,cytotoxicity,0%
NCCNc1nnnc2c1sc1nc(N3CCOCC3)c3c(c12)CCCC3,"human hepatocytes, cryopreserved",UHPLC-MS,,"1 µM, 120 min",,share of drug-related material,10%
N=C(N)c1ccc(C(=O)N[C@@H](Cc2ccc(O)cc2)C(=O)N2CCC(OCC(=O)O)CC2)cc1,Calu-3,ATP content,,"concentration not given, 48 (unit not given)",,cytotoxicity,0%
CCCCn1cc(C(=O)O)c(=O)c2cc(F)c3c(nnn3-c3cccc(OC)c3)c21,K562,"cell growth, SRB",,72 h,,IC50,30.2 ± 4.88 µg/mL
CC(C)=CCc1c2c(c(O)c3c(=O)c(-c4ccc(O)cc4)coc13)CC(C(C)(C)O)O2 (stereo not shown),K562,"cell growth or viability, MTT",,25 µg/mL,,viability,13.3%
[99Tc+].[C-]#[N+]CC(C)(C)OC.[C-]#[N+]CC(C)(C)OC.[C-]#[N+]CC(C)(C)OC.[C-]#[N+]CC(C)(C)OC.[C-]#[N+]CC(C)(C)OC.[C-]#[N+]CC(C)(C)OC,"rat sandwich-cultured hepatocytes, Bcrp siRNA",,,"10 min, culture day 4",,in vitro biliary clearance,9.73 mL/min/kg
COc1ccc(NC(=O)c2ccc(-c3ccc(C(=N)N)cc3C)cc2)cc1N1CCN(C)CC1,Calu-3,ATP content,,"concentration not given, 48 (unit not given)",,cytotoxicity,0%
CCCCn1cc(C(=O)O)c(=O)c2cc(F)c3c(nnn3-c3ccccc3OC)c21,T47D,"cell growth, SRB",,72 h,,IC50,9.16 ± 0.58 µg/mL
N=C(N)NCCC[C@H](NC(=O)[C@H](CCCNC(=N)N)NC(=O)[C@H](CCCNC(=N)N)NC(=O)[C@H](CCCNC(=N)N)NC(=O)[C@H](CCCNC(=N)N)NC(=O)[C@H](CCCNC(=N)N)NC(=O)[C@H](CCCNC(=N)N)NC(=O)[C@H](CCCNC(=N)N)NC(=O)[C@H](Cc1c[nH]cn1)NC(=O)[C@H](Cc1c[nH]cn1)NC(=O)[C@H](Cc1c[nH]cn1)NC(=O)[C@H](Cc1c[nH]cn1)NC(=O)[C@H](Cc1ccccc1)NC(=O)[C@H](Cc1ccccc1)NC(=O)[C@H](Cc1ccccc1)NC(=O)[C@H](Cc1ccccc1)NC(=O)[C@@H](N)Cc1ccccc1)C(N)=O,MCEC,MTT,,"32 µM, 4 h, peptide complex, N/P 20, read 3 days later",,viability,~90%
CC(=O)N[C@H](C(=O)N[C@H](C(=O)N[C@@H](CCCNC(=N)N)C(=O)N1Cc2ccccc2C[C@H]1C(=O)N[C@@H](Cc1ccccc1)C(N)=O)C1CCCCC1)C(C)C,human PBMC,"Bio-Plex multiplex, refers to: IL-6",,"500 µg/mL, 24 h",,cytokine level,489 ± 677 pg/mL
COc1ccc(/C=N/N=C/c2ccc([N+](=O)[O-])s2)cc1,MDBK,CCK-8,,72 h,,CC50,> 346 µM
CCCCn1cc(C(=O)O)c(=O)c2cc(F)c(Nc3cc(OC)c(OC)c(OC)c3)c([N+](=O)[O-])c21,T47D,"cell growth, SRB",,72 h,,IC50,2.84 ± 0.11 µg/mL
CCCCn1cc(C(=O)O)c(=O)c2cc(F)c3[nH]nnc3c21,PANC-1,"cell growth or viability, SRB",,,,IC50,135 µM
CC(C)=CCc1cc(-c2coc3cc(O)c(CC=C(C)C)c(O)c3c2=O)ccc1O,K562,"cell growth or viability, MTT",,50 µg/mL,,viability,9.22%
Cn1c2ccc(Cl)c(=O)c-2nc2ccccc21,MRC5 and A549,WST-8,,72 h,reference: MRC5 IC50 over A549 IC50,selectivity ratio,≥ 5.8 fold
NCC1OC(OC2C(N)CC(N)C(OC3OC(CO)C(O)C(N)C3O)C2OCCCCn2cc(CNc3nc(NCc4cn(CCCCOC5C(OC6OC(CN)C(O)CC6N)C(N)CC(N)C5OC5OC(CO)C(O)C(N)C5O)nn4)nc(NCc4cn(CCCCOC5C(OC6OC(CN)C(O)CC6N)C(N)CC(N)C5OC5OC(CO)C(O)C(N)C5O)nn4)n3)nn2)C(N)CC1O (stereo not shown),Hep G2,PrestoBlue,,"2 µM, 48 h",reference: untreated,viability,90%
Cc1ncsc1-c1ccc([C@H](C)NC(=O)[C@@H]2C[C@@H](O)CN2C(=O)[C@@H](NC(=O)CN2CCN(CC3CCN(CC(=O)N4CCN(c5ncc(-c6cc(NC(=O)c7ccc(F)cc7C(F)(F)F)c(N7C[C@@H](C)N(C)[C@@H](C)C7)cc6F)cn5)CC4)CC3)CC2)C(C)(C)C)cc1,Sf9,LC-MS,,"10 µM, 24 h",reference: total recovery cells plus medium,intracellular fraction,32%
CNC(=O)C(Cc1ccccc1)NC(=O)C(O)(Cc1ccccc1)CN(Cc1ccc(Br)cc1)NC(=O)C(NC(=O)OC)C(C)(C)C (stereo not shown),2/4/A1 rat cell monolayer,,,"pH 7.4, 1% BSA in receiver",,Papp A-to-B,218 ± 5.8 ×10⁻⁶ cm/s
COc1cc2c(cc1O)[C@]1(O)C(=O)c3c(O)cc4c(c3O[C@@H]1CO2)C=CC(C)(C)O4,K562,"cell growth or viability, MTT",,50 µg/mL,,viability,7.19%
COC(=O)NC(C(=O)NN(Cc1ccc(Br)cc1)CC(O)(Cc1ccccc1)C(=O)NC1CCOC1)C(C)(C)C (stereo not shown),2/4/A1 rat cell monolayer,,,"pH 7.4, 1% BSA in receiver",,Papp A-to-B,129 ± 10 ×10⁻⁶ cm/s
CC/C=C\C/C=C\C/C=C\C/C=C\C/C=C\C/C=C\CCC(=O)OC(CO)COP(=O)(O)OCC(N)C(=O)O (stereo not shown),human brain-like endothelial cells,LC-MS,in vitro BBB model,"1 µM, 180 min, pH 7.4",,intracellular accumulation,10.4 ± 0.49%
CNC(=O)C(NC(=O)C(O)(Cc1ccccc1)CN(Cc1ccc(Br)cc1)NC(=O)C(NC(=O)OC)C(C)(C)C)C(C)(C)C (stereo not shown),2/4/A1 rat cell monolayer,,,"pH 7.4, 1% BSA in receiver",,Papp A-to-B,57.3 ± 9.9 ×10⁻⁶ cm/s
C[C@@H]1NC(=O)[C@@H]2CSSC[C@H](NC(=O)[C@H](CC(=O)O)NC(=O)[C@H](CC(=O)O)NC(=O)CNC(=O)[C@H](CC(=O)O)NC(=O)[C@H](Cc3ccc(O)cc3)NC1=O)C(=O)N[C@@H](CCCCN)C(=O)N[C@@H](CO)C(=O)N[C@@H](C)C(=O)NCCc1cccc3c1Oc1c(cccc1-3)CCC(=O)N[C@@H](CO)C(=O)N2,HFLS-RA,,,concentration not given,,cytotoxicity,not toxic
COC(=O)NC(C(=O)NN(Cc1ccc(-c2ccccc2)cc1)CC(O)(Cc1ccccc1)C(=O)NC1c2ccccc2CC1O)C(C)(C)C (stereo not shown),2/4/A1 rat cell monolayer,,,"pH 7.4, 1% BSA in receiver",,Papp A-to-B,82.3 ± 3.5 ×10⁻⁶ cm/s
CCCCCCCOc1ccc(CC[C@](N)(CO)COP(=O)(O)O)cc1C(F)(F)F,primary human cardiac myocytes,,supernatant,100 nM,,time to phosphate metabolite detection,6 h

# Repeated from above:
Structure (SMILES),cell line,assay,system,setting,scale,measurement,result
CCCCCCCOc1ccc(CC[C@](N)(CO)COP(=O)(O)O)cc1C(F)(F)F,primary human cardiac myocytes,,supernatant,100 nM,,time to phosphate metabolite detection,6 h
COc1ccc(/C=N/N=C/c2ccc([N+](=O)[O-])s2)cc1,MDBK,CCK-8,,72 h,,CC50,> 346 µM
CCCCn1cc(C(=O)O)c(=O)c2cc(F)c3c(nnn3-c3cccc(OC)c3)c21,K562,"cell growth, SRB",,72 h,,IC50,30.2 ± 4.88 µg/mL
CCC(=C(c1ccc(O)cc1)c1ccc(OCCN(C)CCOCCOCCOCCOCCOCCOCCOCCOCCOCCOCCOCCN(C)CCOc2ccc(C(=C(CC)c3ccccc3)c3ccc(O)cc3)cc2)cc1)c1ccccc1 (mixture of isomers),U2OS expressing ERα,,,"10 µM, Z-Z:Z-E:E-E 1:2:1 isomer mix",,cell density,8%
